Measurements gathered from unrelated publications.
± marks the error that the study gave.

Compound | assay | system | setting | scale | endpoint | value
O=C(O)C1CN(Cc2ccc(-c3noc(-c4ccc(OCC[18F])c(C(F)(F)F)c4)n3)cc2)C1 | biodistribution | C57BL/6 mouse, sham, liver | 2 h | – | liver uptake | 12.5 %ID/g
Cc1ccccc1-c1cc(N2CC[N+](C)([O-])CC2)ncc1N(C)C(=O)C(C)(C)c1cc(C(F)(F)F)cc(C(F)(F)F)c1 | – | human plasma | – | unbound fraction | fu | < 0.03
Oc1ccc2ccccc2c1/N=N/c1ccc(/N=N/c2ccccc2)cc1 | – | extracted rat blood QC samples | 0.5 µg/L, 12 h, room temperature, short-term stability | – | measured concentration | 0.519 µg/L
COc1ccc(-c2ccn(CC[C@](C)(C(=O)NO)S(C)(=O)=O)c(=O)c2)c(F)c1 | – | CF-1 mouse, female | subcutaneous, 300 mg/kg | – | half-life | 40.8 ± 1.8 min
COc1ccc(/C=C/C2=[N+]3C(=C(CO)c4c(C)cc(/C=C/c5ccc(OC)cc5)n4[B-]3(F)F)C(C)=C2C=O)cc1 | – | acetonitrile | room temperature | – | luminescence quantum yield | 16 ± 3%
Cn1c(=O)oc2ccc(-c3ccc(CC(C#N)NC(=O)C4CNCCCO4)c(F)c3)cc21 (stereo not shown) | – | human | oral, 20 mg once daily, TEAE, multiple ascending dose | – | fibrinogen decreased incidence | 0%
C=C(c1ncc(C(=O)O)cn1)c1cc2c(cc1C)C(C)(C)CCC2(C)C | – | Sprague-Dawley rat, male, plasma | oral, 100 mg/kg, 3 h, sesame oil vehicle | – | HDL level | 54 ± 6.4 mg/dL
N=C(N)NCCC[C@@H]1NC(=O)[C@H](Cc2c[nH]c3ccccc23)NC(=O)[C@@H](CC2CCCCC2)NC(=O)[C@@H]2CCCN2C(=O)[C@@H](NC(=O)CCc2ccccc2)CCCNC1=O | two-compartment model | C57BL/6J mice, plasma | oral, 1 mg/kg | – | alpha rate constant | 0.03 min⁻¹
COCCOCCOCCOc1ccc(/C=C/C2=[N+]3C(=C(c4cc(OC)cc(OC)c4)c4c(C)c(I)c(/C=C/c5ccc(OCCOCCOCCOC)cc5)n4[B-]3(F)F)C(C)=C2I)cc1 | – | THF | – | – | log molar absorptivity | 4.8 M⁻¹ cm⁻¹
CC(C)[C@H](NC(=O)CNC(=O)[C@H](CCC(N)=O)NC(=O)[C@H](C)N)C(=O)O | – | human, plasma | intravenous infusion, 30 mg/kg single, 15 min infusion, geometric mean | – | AUC(0-last) | 490 ng·h/mL
Nc1ccn(C[C@@H](CO)OCP(=O)(O)OCCCS(=O)(=O)CCCCCCCCCCCCCC2CCC2)c(=O)n1 | – | mouse CFW, male, liver | oral, dose not given, outcome increased | reference: equimolar brincidofovir | liver exposure of CDV and CDV-PP | increased
CCC(C)N(C)C(=O)c1nc(-c2cccc(C(F)(F)[18F])c2)c2ccccc2n1 (stereo not shown) | – | healthy mice, blood | intravenous, 3.7 MBq | – | alpha half-life | ~7.89 min
C=CC(=O)Nc1cc(Nc2nccc(-c3cn(C4CC4)c4ccccc34)n2)c(OC)cc1NC | radiolabelled metabolite profiling | human male, plasma | oral, 110 mg, 2 h | – | plasma concentration | 26.7 ng/g
CCC/C(=C\C1=C(C(F)(F)F)C(=O)c2ccccc2C1=O)C(=O)N(CC)CC | – | human liver S9 | 1 µM, pH 7.4, metabolism | – | CLint scaled | 5.9 mL/min/kg
Brc1ccc(Nc2nc(NN=Cc3c[nH]c4ccccc34)nc(N3CCOCC3)n2)cc1 | – | human liver microsomes | – | – | CLint | 0 mL/min/g protein
CCCC[C@@H]1NC(=O)[C@@H](NC(=O)[C@H](CCC(=O)O)NC(=O)CNC(=O)CN2CCN(CC(=O)O)CCN(CC(=O)O)CCN(CC(=O)O)CC2)CCCCNC(=O)C[C@@H](C(N)=O)NC(=O)[C@H](C(C)C)NC(=O)[C@@H]2CCCN2C(=O)[C@H](CCCNC(=N)N)NC(=O)CNC(=O)[C@H](Cc2c[nH]c3ccccc23)NC(=O)[C@H](CCCNC(=N)N)NC(=O)[C@@H](Cc2ccccc2)NC(=O)[C@H](Cc2c[nH]cn2)NC(=O)[C@H](CCC(=O)O)NC1=O [gallium-67 labelled] | – | normal C57 mice | intravenous, 0.037 MBq, 2 h | – | intestine uptake | 1.32 ± 0.73 %ID

Excerpt of the above:
Compound | assay | system | setting | scale | endpoint | value
C=C(c1ncc(C(=O)O)cn1)c1cc2c(cc1C)C(C)(C)CCC2(C)C | – | Sprague-Dawley rat, male, plasma | oral, 100 mg/kg, 3 h, sesame oil vehicle | – | HDL level | 54 ± 6.4 mg/dL
CCCC[C@@H]1NC(=O)[C@@H](NC(=O)[C@H](CCC(=O)O)NC(=O)CNC(=O)CN2CCN(CC(=O)O)CCN(CC(=O)O)CCN(CC(=O)O)CC2)CCCCNC(=O)C[C@@H](C(N)=O)NC(=O)[C@H](C(C)C)NC(=O)[C@@H]2CCCN2C(=O)[C@H](CCCNC(=N)N)NC(=O)CNC(=O)[C@H](Cc2c[nH]c3ccccc23)NC(=O)[C@H](CCCNC(=N)N)NC(=O)[C@@H](Cc2ccccc2)NC(=O)[C@H](Cc2c[nH]cn2)NC(=O)[C@H](CCC(=O)O)NC1=O [gallium-67 labelled] | – | normal C57 mice | intravenous, 0.037 MBq, 2 h | – | intestine uptake | 1.32 ± 0.73 %ID
C=CC(=O)Nc1cc(Nc2nccc(-c3cn(C4CC4)c4ccccc34)n2)c(OC)cc1NC | radiolabelled metabolite profiling | human male, plasma | oral, 110 mg, 2 h | – | plasma concentration | 26.7 ng/g
